Experimental data of several laboratories.
Values joined by “and” are separate records of one study, mostly repeats; a detail may differ.
Sequence of UniProt P00519 (whole entry, unmodified, looked up): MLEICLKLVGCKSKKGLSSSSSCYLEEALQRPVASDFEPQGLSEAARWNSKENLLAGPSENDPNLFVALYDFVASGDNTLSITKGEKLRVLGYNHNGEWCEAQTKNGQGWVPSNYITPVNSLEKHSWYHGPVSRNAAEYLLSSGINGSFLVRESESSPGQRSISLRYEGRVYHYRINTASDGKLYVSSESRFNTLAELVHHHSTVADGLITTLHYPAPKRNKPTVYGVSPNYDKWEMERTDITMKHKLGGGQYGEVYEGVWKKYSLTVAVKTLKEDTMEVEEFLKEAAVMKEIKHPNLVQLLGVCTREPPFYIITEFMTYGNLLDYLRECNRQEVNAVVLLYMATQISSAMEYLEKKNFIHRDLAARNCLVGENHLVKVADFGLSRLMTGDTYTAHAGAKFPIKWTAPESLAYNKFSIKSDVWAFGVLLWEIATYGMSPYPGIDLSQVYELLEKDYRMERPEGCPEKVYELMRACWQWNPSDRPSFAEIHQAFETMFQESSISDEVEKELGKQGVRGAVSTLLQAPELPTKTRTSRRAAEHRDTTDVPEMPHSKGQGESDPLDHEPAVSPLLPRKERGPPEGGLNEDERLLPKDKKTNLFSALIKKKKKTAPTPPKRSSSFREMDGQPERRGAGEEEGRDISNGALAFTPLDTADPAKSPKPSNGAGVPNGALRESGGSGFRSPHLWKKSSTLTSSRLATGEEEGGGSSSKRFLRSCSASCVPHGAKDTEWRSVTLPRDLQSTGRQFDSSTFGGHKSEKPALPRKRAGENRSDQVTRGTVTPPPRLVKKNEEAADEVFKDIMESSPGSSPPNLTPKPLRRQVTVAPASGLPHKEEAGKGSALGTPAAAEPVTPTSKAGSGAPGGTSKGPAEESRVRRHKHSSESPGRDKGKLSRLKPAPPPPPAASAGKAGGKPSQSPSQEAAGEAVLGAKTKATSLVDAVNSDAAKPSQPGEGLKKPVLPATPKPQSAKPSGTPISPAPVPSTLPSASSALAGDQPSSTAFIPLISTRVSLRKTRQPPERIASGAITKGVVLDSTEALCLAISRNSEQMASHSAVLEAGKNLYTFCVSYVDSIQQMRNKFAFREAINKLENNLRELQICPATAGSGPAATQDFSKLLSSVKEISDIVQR
Sequence of UniProt P14416 (whole entry, looked up): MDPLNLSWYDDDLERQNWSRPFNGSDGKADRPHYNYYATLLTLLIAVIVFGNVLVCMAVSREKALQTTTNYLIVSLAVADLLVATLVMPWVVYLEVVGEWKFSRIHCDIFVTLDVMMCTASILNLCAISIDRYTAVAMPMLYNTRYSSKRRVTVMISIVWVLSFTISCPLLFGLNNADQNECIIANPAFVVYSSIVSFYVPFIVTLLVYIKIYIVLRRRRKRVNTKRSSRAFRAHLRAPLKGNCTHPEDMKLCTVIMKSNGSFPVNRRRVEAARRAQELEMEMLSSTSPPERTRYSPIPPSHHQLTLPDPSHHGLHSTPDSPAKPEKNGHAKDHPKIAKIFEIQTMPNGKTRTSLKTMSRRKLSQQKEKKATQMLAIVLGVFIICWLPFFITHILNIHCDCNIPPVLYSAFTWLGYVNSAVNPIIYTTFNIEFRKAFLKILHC
Sequence of UniProt Q5VT25 (whole entry, looked up): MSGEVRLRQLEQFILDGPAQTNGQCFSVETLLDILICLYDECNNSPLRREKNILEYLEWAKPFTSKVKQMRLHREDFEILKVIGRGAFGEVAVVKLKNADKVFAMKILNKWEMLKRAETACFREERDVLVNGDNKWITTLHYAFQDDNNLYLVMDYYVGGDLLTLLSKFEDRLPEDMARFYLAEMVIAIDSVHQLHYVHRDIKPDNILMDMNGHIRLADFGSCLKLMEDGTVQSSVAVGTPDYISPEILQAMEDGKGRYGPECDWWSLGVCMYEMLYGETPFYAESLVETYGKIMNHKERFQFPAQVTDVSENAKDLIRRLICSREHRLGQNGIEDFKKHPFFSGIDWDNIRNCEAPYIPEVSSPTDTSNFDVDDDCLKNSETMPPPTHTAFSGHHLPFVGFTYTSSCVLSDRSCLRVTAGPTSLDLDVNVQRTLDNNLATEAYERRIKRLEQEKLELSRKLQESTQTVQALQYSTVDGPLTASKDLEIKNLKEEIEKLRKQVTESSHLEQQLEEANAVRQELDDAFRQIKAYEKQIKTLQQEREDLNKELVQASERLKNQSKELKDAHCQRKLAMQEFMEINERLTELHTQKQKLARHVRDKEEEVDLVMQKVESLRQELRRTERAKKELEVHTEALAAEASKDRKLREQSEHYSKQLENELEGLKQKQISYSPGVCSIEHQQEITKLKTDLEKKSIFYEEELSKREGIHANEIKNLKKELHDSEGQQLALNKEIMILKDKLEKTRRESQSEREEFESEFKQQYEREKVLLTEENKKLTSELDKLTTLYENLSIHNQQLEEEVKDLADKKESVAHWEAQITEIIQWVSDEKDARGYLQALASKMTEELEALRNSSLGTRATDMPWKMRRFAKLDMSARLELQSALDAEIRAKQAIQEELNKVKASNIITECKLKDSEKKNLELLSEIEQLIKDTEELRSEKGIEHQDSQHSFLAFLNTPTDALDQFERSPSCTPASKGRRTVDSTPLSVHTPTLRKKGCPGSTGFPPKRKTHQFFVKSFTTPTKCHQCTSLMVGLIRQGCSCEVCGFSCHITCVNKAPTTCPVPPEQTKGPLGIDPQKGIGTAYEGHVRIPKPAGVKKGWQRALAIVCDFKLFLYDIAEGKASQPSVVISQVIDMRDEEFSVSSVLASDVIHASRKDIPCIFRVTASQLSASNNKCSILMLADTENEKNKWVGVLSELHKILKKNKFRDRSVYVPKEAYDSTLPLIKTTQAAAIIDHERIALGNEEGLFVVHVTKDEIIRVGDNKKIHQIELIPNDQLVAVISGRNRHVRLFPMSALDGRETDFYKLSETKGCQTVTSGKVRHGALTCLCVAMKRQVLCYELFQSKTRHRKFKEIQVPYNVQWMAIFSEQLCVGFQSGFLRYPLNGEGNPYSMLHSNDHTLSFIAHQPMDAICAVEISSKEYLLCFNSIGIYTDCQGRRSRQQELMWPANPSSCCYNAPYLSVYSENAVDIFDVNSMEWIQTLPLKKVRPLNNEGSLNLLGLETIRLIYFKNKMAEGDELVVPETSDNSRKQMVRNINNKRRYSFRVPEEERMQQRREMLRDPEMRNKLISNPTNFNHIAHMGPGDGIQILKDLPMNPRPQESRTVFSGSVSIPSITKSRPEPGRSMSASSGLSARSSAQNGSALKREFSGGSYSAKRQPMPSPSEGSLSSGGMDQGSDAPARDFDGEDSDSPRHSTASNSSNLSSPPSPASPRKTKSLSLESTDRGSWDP
Sequence of UniProt Q16774 (whole entry, looked up): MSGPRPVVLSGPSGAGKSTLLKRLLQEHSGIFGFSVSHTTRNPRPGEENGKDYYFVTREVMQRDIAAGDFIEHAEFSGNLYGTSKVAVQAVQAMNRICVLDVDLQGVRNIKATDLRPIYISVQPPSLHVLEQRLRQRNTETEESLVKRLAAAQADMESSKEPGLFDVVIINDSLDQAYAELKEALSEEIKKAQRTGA
Sequence of UniProt Q7CTU0 (whole entry, looked up): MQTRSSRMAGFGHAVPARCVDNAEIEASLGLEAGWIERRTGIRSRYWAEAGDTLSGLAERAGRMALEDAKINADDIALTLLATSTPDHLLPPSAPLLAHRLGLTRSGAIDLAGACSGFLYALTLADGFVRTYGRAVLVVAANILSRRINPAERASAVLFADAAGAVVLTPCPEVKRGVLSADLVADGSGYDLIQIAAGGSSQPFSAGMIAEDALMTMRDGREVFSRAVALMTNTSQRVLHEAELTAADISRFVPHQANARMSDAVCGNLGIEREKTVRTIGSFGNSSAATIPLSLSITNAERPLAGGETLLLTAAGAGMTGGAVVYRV
Sequence of UniProt P37231 (whole entry, looked up): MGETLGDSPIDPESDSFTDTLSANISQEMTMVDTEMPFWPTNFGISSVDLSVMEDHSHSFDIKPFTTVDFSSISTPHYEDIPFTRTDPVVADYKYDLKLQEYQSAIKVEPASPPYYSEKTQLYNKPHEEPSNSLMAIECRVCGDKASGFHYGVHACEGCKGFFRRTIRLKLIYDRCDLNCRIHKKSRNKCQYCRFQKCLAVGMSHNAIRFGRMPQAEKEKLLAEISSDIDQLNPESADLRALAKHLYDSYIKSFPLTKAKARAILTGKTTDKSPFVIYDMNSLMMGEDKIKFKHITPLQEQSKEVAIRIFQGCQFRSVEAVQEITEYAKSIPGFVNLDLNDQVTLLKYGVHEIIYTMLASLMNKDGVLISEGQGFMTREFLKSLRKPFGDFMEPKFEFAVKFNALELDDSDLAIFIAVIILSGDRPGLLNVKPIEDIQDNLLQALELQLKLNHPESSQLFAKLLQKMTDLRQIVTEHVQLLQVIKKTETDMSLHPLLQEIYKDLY
Sequence of UniProt Q02156 (whole entry, looked up): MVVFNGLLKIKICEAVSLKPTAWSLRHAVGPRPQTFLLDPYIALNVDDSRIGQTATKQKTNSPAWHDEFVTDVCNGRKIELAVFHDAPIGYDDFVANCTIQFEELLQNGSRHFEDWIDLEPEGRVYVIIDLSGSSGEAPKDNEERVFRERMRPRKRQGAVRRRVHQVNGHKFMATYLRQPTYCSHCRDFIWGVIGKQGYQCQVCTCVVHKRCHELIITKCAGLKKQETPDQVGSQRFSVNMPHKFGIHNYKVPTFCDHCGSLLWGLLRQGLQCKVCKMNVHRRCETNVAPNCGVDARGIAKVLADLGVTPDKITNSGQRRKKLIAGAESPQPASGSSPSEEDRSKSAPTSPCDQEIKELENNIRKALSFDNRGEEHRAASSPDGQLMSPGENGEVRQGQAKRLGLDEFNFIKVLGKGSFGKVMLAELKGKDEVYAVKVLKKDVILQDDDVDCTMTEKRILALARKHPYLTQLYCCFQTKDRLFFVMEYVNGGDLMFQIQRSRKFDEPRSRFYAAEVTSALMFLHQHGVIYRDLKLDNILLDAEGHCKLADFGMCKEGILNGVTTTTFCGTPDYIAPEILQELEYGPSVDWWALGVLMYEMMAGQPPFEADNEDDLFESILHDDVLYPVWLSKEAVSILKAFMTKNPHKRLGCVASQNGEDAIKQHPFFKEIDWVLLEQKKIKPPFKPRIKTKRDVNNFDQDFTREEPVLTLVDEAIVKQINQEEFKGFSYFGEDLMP

| Compound | target | assay | conditions | quantity | value |
| --- | --- | --- | --- | --- | --- |
| Cc1cc([C@@H](C)Nc2ccccc2C(=O)O)c2nc(N3CCC(F)(F)CC3)c(C#N)c(=O)n2c1 | Tyrosine-protein kinase ABL1, phosphorylated (ABL1, Homo sapiens, UniProt P00519, E255K) | binding, competition with immobilised ligand | 1 µM | remaining binding | 94% |
| CC(=O)N[C@H](C(=O)N1C[C@H](O)C[C@H]1C(=O)NCc1ccc(-c2scnc2C)cc1)C(C)(C)SCCCCCCNC(=O)C[C@@H]1N=C(c2ccc(Cl)cc2)c2c(sc(C)c2C)-n2c(C)nnc21 | Bromodomain-containing protein 4, BD1 (BRD4, Homo sapiens, UniProt O60885) | binding, ITC |  | Kd | 0.075 µM |
| COCc1nc2cnc3cc(-c4c(C)noc4C)c(OC[C@H]4CCNC4)cc3c2n1[C@H](C)c1ccccc1 | Bromodomain-containing protein 2, BD1 (BRD2, Homo sapiens, UniProt P25440) | binding, SPR |  | Kd | 0.00778 µM |
| C=CC1=C(C)C2=Cc3c(C=C)c(C)c4[n]3[Fe]([Cl])[n]3c(c(C)c(CCC(=O)O)c3=CC3=NC(=C4)C(C)=C3CCC(=O)O)=CC1=N2 | 5-aminolevulinate synthase, erythroid-specific, mitochondrial (Human, UniProt P22557) | binding, ITC |  | Kd | 0.232 µM |
| Nc1nc2c(ncn2[C@@H]2O[C@H](COP(=O)(O)OP(=O)(O)O)[C@@H](O)[C@H]2O)c(=O)[nH]1 | GUK1 (Homo sapiens, UniProt Q16774) | binding, ITC |  | Kd | 26 µM |
| CCO[C@@H](Cc1ccc(OCCc2ccc(OS(C)(=O)=O)cc2)cc1)C(=O)O | PPARG (Homo sapiens, UniProt P37231) | binding, ITC |  | Kd | 0.4 µM |
| OC[C@H]1OC(O)[C@H](O)[C@@H](O)[C@@H]1O (stereo partly shown) | DDX3X (Homo sapiens, UniProt O00571) | binding, MST |  | Kd | 104 µM |
| CC(C)(COP(=O)(O)OP(=O)(O)OC[C@H]1O[C@@H](n2cnc3c(N)ncnc32)[C@H](O)[C@@H]1OP(=O)(O)O)[C@@H](O)C(=O)NCCC(=O)NCCSC(=O)CCCC(=O)O | bioZ (Agrobacterium fabrum, UniProt Q7CTU0) | binding, ITC |  | Kd | 0.19 µM |
| C=CC(=O)N1CCC(COCC(=O)N2CCN(c3nc(-c4cnc(N)nc4C(F)F)nc(N4CCOC[C@@H]4C)n3)CC2)CC1 | PIK3CB (Homo sapiens, UniProt P42338) | binding, competition with immobilised ligand | 1 µM | remaining binding | 0.55% |
| Cc1nc2n(c(=O)c1CCN1CCC(c3noc4cc(F)ccc34)CC1)CCCC2O (stereo not shown) | DRD2 (Homo sapiens, UniProt P14416) | binding |  | Kd | 0.00545 µM and 0.00925 µM |
| CNc1ncc2c(/C=C/C(=O)N3CCC(OC)CC3)nn(Cc3cccc(C(F)(F)F)c3)c2n1 | MELK (Homo sapiens, UniProt Q14680) | enzyme activity, inhibitor, radiometric | 1 µM | remaining activity | 104% |
| COc1cc(-c2cncc3c2CN(C)Cc2cc(N4CCNCC4)ccc2-3)cc(OC)c1OC | PRKCE (Homo sapiens, UniProt Q02156) | enzyme activity, inhibitor | 1 µM | remaining activity | 103% |
| CCCCC(=O)Nc1ccc(-c2ccc3ncn(CCC)c(=O)c3c2)cn1 | Tyrosine-protein kinase ABL1, non-phosphorylated (ABL1, Homo sapiens, UniProt P00519, H396P) | binding, competition with immobilised ligand | 0.5 µM | remaining binding | 77% |
| Cc1cnc(-c2ccc(-c3ccc(NC(=O)Nc4c(F)cc(F)cc4F)cc3F)c3c2C(=O)NC3)[nH]1 | TNIK (Homo sapiens, UniProt Q9UKE5) | binding, competition with immobilised ligand |  | Kd | 0.0047 µM |
| CCCN1CCN(c2ccc(-c3cncc(Cl)c3N3CCC4(CCNC4=O)CC3)cc2)CC1 | CDC42BPA (Homo sapiens, UniProt Q5VT25) | cell-free assay | lysate | Kd | 2.04 µM |
| CN(C)C(=O)c1cc2cnc(Nc3ccc(C(=O)NCCCCCCOc4cccc5c4C(=O)N(C4CCC(=O)NC4=O)C5=O)cc3)nc2n1C1CCCC1 (stereo not shown) | Aurora kinase A (AURKA, Homo sapiens, UniProt O14965) | binding, competition with immobilised ligand |  | Kd | 0.0063 µM |

A few entries again:
| Compound | target | assay | conditions | quantity | value |
| --- | --- | --- | --- | --- | --- |
| CCCN1CCN(c2ccc(-c3cncc(Cl)c3N3CCC4(CCNC4=O)CC3)cc2)CC1 | CDC42BPA (Homo sapiens, UniProt Q5VT25) | cell-free assay | lysate | Kd | 2.04 µM |
| CN(C)C(=O)c1cc2cnc(Nc3ccc(C(=O)NCCCCCCOc4cccc5c4C(=O)N(C4CCC(=O)NC4=O)C5=O)cc3)nc2n1C1CCCC1 (stereo not shown) | Aurora kinase A (AURKA, Homo sapiens, UniProt O14965) | binding, competition with immobilised ligand |  | Kd | 0.0063 µM |
| CC(=O)N[C@H](C(=O)N1C[C@H](O)C[C@H]1C(=O)NCc1ccc(-c2scnc2C)cc1)C(C)(C)SCCCCCCNC(=O)C[C@@H]1N=C(c2ccc(Cl)cc2)c2c(sc(C)c2C)-n2c(C)nnc21 | Bromodomain-containing protein 4, BD1 (BRD4, Homo sapiens, UniProt O60885) | binding, ITC |  | Kd | 0.075 µM |
